Measured values from different studies.
± marks the error that the study gave.
SRC SH3-SH2-kinase domain: Proto-oncogene tyrosine-protein kinase Src, SH3-SH2-kinase domain (SRC, Gallus gallus, UniProt P00523)
F10: Coagulation factor X (F10, Homo sapiens, UniProt P00742)
Genome polyprotein NS3 helicase domain: Genome polyprotein, NS3 helicase domain (Hepatitis C virus genotype 1b, UniProt Q9WMX2)

SMILES	target	test	system	setting	IC50 [µM]
NC(=O)[C@@H]1CCCNC(=O)[C@H](Cc2ccc([N+](=O)[O-])cc2)NC(=O)[C@H](Cc2ccc(F)cc2)NC(=O)[C@H](CC2CCCCC2)NC(=O)/C=C/C(=O)N1	SRC SH3-SH2-kinase domain	enzyme activity, inhibitor, Z'-LYTE FRET		Src residues 83-533, with: 50 µM ATP	≤ 0.004
CC(C)CCC[C@@H](C)[C@H]1CC[C@H]2[C@@H]3CC=C4C[C@@H](OS(=O)(=O)O)CC[C@]4(C)[C@H]3CC[C@]12C	Prothrombin (F2, Homo sapiens, UniProt P00734)	enzyme activity, inhibitor		10 min, pH 7.4, 25 °C, 0.02% Tween 80, with: Spectrozyme TH	229 ± 10.2
CNC(=O)N(C)c1ccc(C(=O)Nc2ccc(C)cc2C(=O)Nc2ccc(Cl)cn2)c(OC)c1	F10	enzyme activity, inhibitor, absorbance			0.01
Oc1cccc(/C=N/n2c(Cn3nnc4ccccc43)n[nH]c2=S)c1	XDH (Bos taurus, UniProt P80457)	enzyme activity, inhibitor			254
CC(=O)Nc1ccc(S(=O)(=O)NCc2nc(-c3ccccc3)no2)cc1	Trypanothione synthetase (Trypanosoma brucei, UniProt Q586P2)	enzyme activity, inhibitor			5.9
Cc1ccc2nc(-c3ccc(N)cc3)sc2c1S(=O)(=O)O	Genome polyprotein NS3 helicase domain	ATPase activity, inhibitor, malachite green			> 100
O=C(CN1CCOc2ccccc2C1)c1ccc2[nH]c(=O)[nH]c2c1	APOBEC3G (Homo sapiens, UniProt Q9HC16)	enzyme activity, inhibitor		pH 6	740
CC(C)(C)S(=O)(=O)Cc1nc(-c2ccc(C(F)(F)F)cc2)cs1	Trypanothione synthetase (Trypanosoma brucei, UniProt Q586P2)	enzyme activity, inhibitor			> 100
CC1CCN(Cc2ccc(CNC(=O)Cc3cc(Cl)c4c(c3)OCCO4)cc2)CC1	Trypanothione synthetase (Trypanosoma brucei brucei, UniProt Q586P2)	enzyme activity, BIOMOL Green phosphate release		1 h preincubation	13.1 ± 0.7
CC(C)NCc1ccc(C[C@@H]2NC(=O)[C@@H](Cc3c[nH]c4ccccc34)NC(=O)[C@H](Cc3ccccc3)NC(=O)[C@@H](NC(=O)[C@H](N)Cc3ccccc3)CSSC[C@@H](C(=O)N[C@H](C(N)=O)[C@@H](C)O)NC(=O)[C@H](Cc3ccc(O)c(I)c3)NC2=O)cc1	SSTR1 (Homo sapiens, UniProt P30872)	ligand displacement, radioligand		cell membranes	0.565
COCCNc1nc(-c2nccn2C)nc2sc(-c3cccc(OC)c3Cl)c(-c3ccccc3)c12	RHOA (Homo sapiens, UniProt P61586)	GTP binding, inhibitor, cell-free GTP competition		with: fluorescent GTP 100 nmol/L	2.5
O=C1/C=C/C(=O)N[C@@H](CC2CCCCC2)C(=O)N[C@@H](Cc2ccc(F)cc2)C(=O)N[C@@H](Cc2ccc([N+](=O)[O-])cc2)C(=O)NCCC[C@@H](C(=O)O)N1	SRC (Gallus gallus, UniProt P00523)	enzyme activity, inhibitor	kinase domain	with: 250 µM ATP	0.099
O=C1NC(=O)/C(=C/c2ccc(C(=O)NC[C@@H]3C[C@@H](SC(c4ccccc4)(c4ccccc4)c4ccccc4)CN3C(=O)c3ccccc3C(=O)c3ccc(F)cc3F)cc2)S1	PLA2G4A (Homo sapiens, UniProt P47712)	enzyme activity, LC-MS mixed micelle, item: total arachidonic acid released		with: mixed arachidonoyl phospholipids	1.3
CCOC(=O)c1cc2cc(-c3cc(C(=O)NCc4ccc(C(=O)O)cc4)nn3C)ccc2[nH]1	MMP1 (Homo sapiens, UniProt P03956)	enzyme activity, inhibitor			0.72
CCOC(=O)N1CCC(Oc2nc3c(c(=O)n(C)c(=O)n3C)n2CCC(C)C)CC1	HPGD (Homo sapiens, UniProt P15428)				> 57
CCOc1cncc(-c2ccc(NC(=O)C(CC)c3ccnc(NS(=O)(=O)C4CC4)n3)nc2)n1 (centres unmarked)	Ctps2 (Mus musculus, UniProt P70303)	enzyme activity, inhibitor, mass spectrometry			0.126
Cc1cc([N+](=O)[O-])cn(CC(=O)c2cc3cc(Cl)ccc3[nH]2)c1=O	DNA repair protein RAD52 homolog, with RPA and ssDNA (RAD52, Homo sapiens, UniProt P43351)	inhibitor, FRET			7 ± 0.29
CC[C@H](C)[C@H](NC(=O)[C@H](CCCCN)NC(=O)[C@H](CC(C)C)NC(=O)CNC(=O)[C@@H]1CCCN1C(=O)[C@H](CC(N)=O)NC(=O)[C@H](CCCNC(=N)N)NC(=O)[C@H](CCCCN)NC(=O)[C@H](CCCCN)NC(=O)CNC(=O)[C@H](CCCCN)NC(=O)[C@H](CO)NC(=O)[C@H](C)NC(=O)[C@@H](N)Cc1ccc(O)cc1)C(=O)N1CCC[C@H]1C(=O)N[C@@H](CCCCN)C(=O)O	Mitogen-activated protein kinase 14 (Rattus norvegicus, UniProt P70618)	enzyme activity, inhibitor, fluorescence			16
CCC(NC(=O)C(CC(C)C)NC(=O)NCc1ccc(C#N)cc1)C(=O)C(=O)NCc1cc(OC)cc(OC)c1 (centres unmarked)	Calpain-2 catalytic subunit (Capn2, Mus musculus, UniProt O08529)	enzyme activity, inhibitor	mouse pons-cerebellum membranes	with: calcium 2 mM	0.114

SMILES	target	test	system	setting	IC50 [µM]
CC(=O)N1CCC[C@H]1C(=O)N[C@@H](CC/C=C/C(=O)N(C)C)C(=O)N[C@@H](CC(C)C)C(=O)N1CCC[C@H]1C(=O)N[C@@H](Cc1ccccc1)C(N)=O	TGM2 (Homo sapiens, UniProt P21980)	transamidase activity, inhibitor, GDH-coupled		pH 7.2, 25 °C	5.1
O=C(NCc1c(F)cccc1F)c1sccc1OCc1ccc(Cl)cc1Cl	Phosphatidylinositol 3,4,5-trisphosphate 5-phosphatase 1, Ptase-C2 domains (INPP5D, Homo sapiens, UniProt Q92835)	enzyme activity, inhibitor			37.1
COc1ccc([C@@H]2CC(=O)c3c(O)cc(O[C@@H]4O[C@H](CO[C@@H]5O[C@@H](C)[C@H](O)[C@@H](O)[C@H]5O)[C@@H](O)[C@H](O)[C@H]4O)cc3O2)cc1	SLCO1B1 (Homo sapiens, UniProt Q9Y6L6)	8-FcA uptake, inhibitor, flow cytometry	HEK293 expressing SLCO1B1	10 min, with: 8-FcA 2.5 µM	> 100
Cc1ccccc1-c1cc(N2CCN(C)CC2)ccc1N(C)C(=O)C(C)(C)c1cc(C(F)(F)F)cc(C(F)(F)F)c1	TACR1 (Homo sapiens, UniProt P25103)	nuclear ERK activity, antagonist, FRET biosensor	HEK293T	30 to 90 min preincubation, with: substance P 10 nM	0.417
Cc1ccc2nc(NN)n(Cc3ccccc3)c(=O)c2c1	Genome polyprotein, protease (Hepatitis C virus genotype 1b, UniProt O92972)	enzyme activity, inhibitor, FRET			29.6
CCOC1=CC(=O)c2cc3c(cc2C1=O)CCCC3(C)C	DNA topoisomerase IB (Leishmania donovani, UniProt A0A3Q8IHS4+Q8WQM6)	DNA relaxation activity, inhibitor		with: supercoiled plasmid DNA	> 100
NC(=O)[C@@H]1CCCNC(=O)[C@H](Cc2ccc([N+](=O)[O-])cc2)NC(=O)[C@H](Cc2ccccc2)NC(=O)[C@H](C(c2ccccc2)c2ccccc2)NC(=O)/C=C/C(=O)N1	SRC SH3-SH2-kinase domain	enzyme activity, inhibitor, Z'-LYTE FRET		Src residues 83-533, with: 50 µM ATP	1.3 ± 0.2
CC[C@H](C)[C@H](NC(=O)[C@H](CC(C)C)NC(=O)c1ccc(N)nc1)C(=O)NCC(=O)N[C@@H](CCCN=C(N)N)C(=O)N[C@@H](CC(C)C)C(N)=O	F2RL1 (Homo sapiens, UniProt P55085)	ligand displacement			18.5
Cc1ccccc1-c1noc(CNS(=O)(=O)c2ccccc2)n1	Trypanothione synthetase (Trypanosoma brucei, UniProt Q586P2)	enzyme activity, inhibitor			15
Cc1cc(C(=O)Nc2nc3cccc(C)c3n2[C@H]2CCCCN(C(=O)/C=C/CN(C)C)C2)ccn1	CDC2-like kinase 1 (Trypanosoma brucei brucei, UniProt Q382U0)	kinase activity, inhibitor, ADP-Glo		10 min	0.01
COc1cccc(Nc2nc(-c3ccc(Br)cc3)cs2)c1	Capsid scaffolding protein, protease domain (Human herpesvirus 8 type P, UniProt Q2HRB6)	protease activity, inhibitor		with: fluorogenic peptide substrate	211
CC(C)(C)n1nc(-c2ccc(Cl)cc2)c2c(N)ncnc21	Proto-oncogene tyrosine-protein kinase Src, autophosphorylated (SRC, Gallus gallus, UniProt P00523, Y527F)	photo-crosslinking probe binding, competition with HT-1	mammalian cell lysate	activated kinase	0.11 ± 0.01
Nc1nc2c(c(=O)[nH]1)[n+](Cc1cc3cc(Cl)ccc3o1)cn2Cc1cccc(CCP(=O)(O)O)c1	EIF4E (Homo sapiens, UniProt P06730)	cell-free assay, FP			3.5
NC(=O)[C@@H]1CCCNC(=O)[C@H](Cc2ccc([N+](=O)[O-])cc2)NC(=O)[C@H](Cc2ccccc2)NC(=O)[C@H](CC2CC2)NC(=O)/C=C/C(=O)N1	SRC SH3-SH2-kinase domain	enzyme activity, inhibitor, Z'-LYTE FRET		Src residues 83-533, with: 50 µM ATP	0.08 ± 0.008
O=C(Nc1cccc(C(=O)Nc2ccc(S(=O)(=O)O)c3cc(S(=O)(=O)O)cc(S(=O)(=O)O)c23)c1)Nc1cccc(C(=O)Nc2ccc(S(=O)(=O)O)c3cc(S(=O)(=O)O)cc(S(=O)(=O)O)c23)c1	Genome polyprotein NS3 helicase domain	DNA binding, fluorescence polarization		with: Cy5-dT15 DNA 5 nM	6.3 ± 0.6
CN1CCc2nc(C(=O)NC3CC(C(=O)O)CCC3NC(=O)C(=O)Nc3ccc(Cl)cn3)sc2C1 (centres unmarked)	F10	enzyme activity, inhibitor			0.0018
Cc1ccc2nc(-c3ccc4nc(-c5ccc(N(C)C(=O)c6ccc7ccccc7c6)cc5)sc4c3)sc2c1S(=O)(=O)O	Genome polyprotein NS3 helicase domain	helicase activity, inhibitor, molecular beacon helicase			14 ± 0.1
N=C(N)NCCC[C@H](NC(=O)[C@@H](Cc1ccccc1)NC(=O)[C@H](Cc1c[nH]cn1)NC(=O)CCc1cn(CC(=O)NCCC(=O)NCCCC(CCCNC(=O)CCNC(=O)Cn2cc(CCC(=O)N[C@@H](Cc3c[nH]cn3)C(=O)N[C@H](Cc3ccccc3)C(=O)N[C@@H](CCCNC(=N)N)C(=O)N[C@@H](Cc3c[nH]c4ccccc34)C(N)=O)nn2)(NC(=O)CNC(=O)CCNC(=O)Cn2cc(CCC(=O)N[C@@H](Cc3c[nH]cn3)C(=O)N[C@H](Cc3ccccc3)C(=O)N[C@@H](CCCNC(=N)N)C(=O)N[C@@H](Cc3c[nH]c4ccccc34)C(N)=O)nn2)C(=O)NCCC(N)=O)nn1)C(=O)N[C@@H](Cc1c[nH]c2ccccc12)C(N)=O (some centres unmarked)	MC4R (Homo sapiens, UniProt P32245)	binding, competitor, time-resolved fluorescence		with: Eu-NDP-α-MSH	~0.072
C/C=C/C(=O)Nc1ccc2nc(NCCCCCN(C)C)nc(NCCCCCCN(C)C)c2c1	Histone lysine demethylase PHF8, PHD (PHF8, Homo sapiens, UniProt Q9UPP1)	enzyme activity, inhibitor, TR-FRET			> 100

A few entries again:
SMILES	target	test	system	setting	IC50 [µM]
CC[C@H](C)[C@H](NC(=O)[C@H](CC(C)C)NC(=O)c1ccc(N)nc1)C(=O)NCC(=O)N[C@@H](CCCN=C(N)N)C(=O)N[C@@H](CC(C)C)C(N)=O	F2RL1 (Homo sapiens, UniProt P55085)	ligand displacement			18.5
Cc1ccccc1-c1noc(CNS(=O)(=O)c2ccccc2)n1	Trypanothione synthetase (Trypanosoma brucei, UniProt Q586P2)	enzyme activity, inhibitor			15
Cc1cc(C(=O)Nc2nc3cccc(C)c3n2[C@H]2CCCCN(C(=O)/C=C/CN(C)C)C2)ccn1	CDC2-like kinase 1 (Trypanosoma brucei brucei, UniProt Q382U0)	kinase activity, inhibitor, ADP-Glo		10 min	0.01
